Experimental data of several laboratories.
Every numbered part comes from another study and shows a few of its results, in no order.

Study 1 — technique: universal PBM; form: double-stranded DNA, one strand shown; matrix: in vitro; tested at: not given; reading: higher = stronger binding; measurement: E-score
Target: Sal-like protein 4, full length isoform B (SALL4, Homo sapiens, UniProt Q9UJQ4-2, residues 1-616)
Setting: 8-mer, flanks averaged, mean of replicates
Residues (chain): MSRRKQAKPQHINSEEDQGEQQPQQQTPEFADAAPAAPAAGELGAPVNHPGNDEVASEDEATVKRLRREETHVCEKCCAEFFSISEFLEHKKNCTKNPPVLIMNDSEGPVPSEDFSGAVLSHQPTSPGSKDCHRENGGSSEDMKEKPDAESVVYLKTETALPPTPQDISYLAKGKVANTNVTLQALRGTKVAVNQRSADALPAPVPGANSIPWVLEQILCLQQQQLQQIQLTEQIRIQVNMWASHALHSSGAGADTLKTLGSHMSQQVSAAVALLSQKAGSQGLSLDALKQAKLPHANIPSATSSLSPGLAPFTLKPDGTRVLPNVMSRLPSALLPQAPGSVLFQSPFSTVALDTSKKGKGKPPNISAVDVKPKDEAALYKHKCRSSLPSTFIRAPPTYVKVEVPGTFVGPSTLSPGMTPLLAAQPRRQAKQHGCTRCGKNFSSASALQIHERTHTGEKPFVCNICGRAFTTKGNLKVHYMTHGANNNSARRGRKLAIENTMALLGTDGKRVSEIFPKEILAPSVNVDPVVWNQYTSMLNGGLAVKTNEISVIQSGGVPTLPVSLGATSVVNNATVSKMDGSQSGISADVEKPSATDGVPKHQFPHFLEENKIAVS
AACCCAAC: -0.0689
CAACCACC: -0.257
TGGAACAA: 0.167

Study 2 — technique: protein binding microarray; form: double-stranded DNA, one strand shown; matrix: in vitro; tested at: not given; reference: not given; reading: higher = stronger binding; measurement: E-score
Target: Histone acetyltransferase KAT6A, winged helix 1, GST fusion (KAT6A, Homo sapiens, UniProt Q92794, residues 1-85)
Setting: 8-mer, flanks averaged, mean of 2 arrays, mostly near background
Construct (chain): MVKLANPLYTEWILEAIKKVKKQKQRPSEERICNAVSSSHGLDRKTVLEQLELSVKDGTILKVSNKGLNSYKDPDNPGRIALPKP
AGCAGCGC: 0.249
ACGACACA: -0.245
ACCTTTAG: -0.116
CAAAATCG: -0.0112
CATCGGCG: 0.344
GAAATTGC: -0.0315

Study 3 — technique: protein-binding microarray; form: double-stranded DNA, one strand shown; matrix: in vitro; tested at: 940 nM top; setting: 60-bp whole probe; together with: salmon DNA 0.4 mg/ml; reference: random background probes; reading: higher = stronger binding; measurement: fitted relative affinity; constant ends, left off below: GCCTAGCAC … GTCTTGATTCGCTTGACGCTGCTG
Target: Interferon regulatory factor 5, full length, phosphomimetic (IRF5, Homo sapiens, UniProt Q13568-2, residues 1-514, S451D/S453D/S456D/S462D)
GACGGTATACTTCTCCTGACGTGCTAG: -0.11 z-score
TTAGAATCCAGTTTCGATTAGTGCTAG: 9.03 z-score
CAGCCTCTACCTCCTGGGCTCGTGCTA: 0.0703 z-score
CCAGGCTGAAAGACCTCTGAGTGCTAG: -0.638 z-score
TTTTATATCTTATCCTATCAGTGCTAG: 1.04 z-score
TTAGAATTGAGTCTCGATTAGTGCTAG: 3.5 z-score

Further values, each from its own experiment
PhoQ, residues 284 288 289 292 302 303 SSCCRF
fold induction (PhoP, residues 12 14 15 18 19 NQFFI (Escherichia coli, UniProt P23836); Sort-seq, refers to: YFP reporter; E. coli; PhoQ-PhoP variant library, together with: 10 µM Mg2+; reference: high Mg2+ state, higher = stronger signaling): 16.7

For quick reference, copied from above (study 1):
TGGAACAA: 0.167
AACCCAAC: -0.0689
